Published values collected from several papers.
Parts stem from different laboratories: compare values within a part only. Changes are numbered by the printed parent chain.

Block 1
Target: CCND1, cyclin fold, Cln2 fusion (human)
Method: yeast growth competition, sequencing
Matrix: yeast
Notes: weak parent motif
Reference: not given
Reading: higher = stronger binding
Starting sequence: RB1 docking peptide (human); PKPLKKLRFDIEG; partner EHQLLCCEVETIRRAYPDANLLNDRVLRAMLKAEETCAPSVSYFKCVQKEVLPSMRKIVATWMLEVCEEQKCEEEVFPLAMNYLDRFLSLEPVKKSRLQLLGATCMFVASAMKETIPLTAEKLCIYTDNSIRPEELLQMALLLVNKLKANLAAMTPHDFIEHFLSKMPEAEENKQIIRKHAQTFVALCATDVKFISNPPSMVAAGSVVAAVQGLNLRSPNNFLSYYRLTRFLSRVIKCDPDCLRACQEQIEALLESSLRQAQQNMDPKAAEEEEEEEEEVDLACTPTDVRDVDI
For `PKPLKKLRFDIEH [G13H]`, “normalised enrichment score” read 0.0454.
For `PKPLWKLRFDIEG [K5W]`, “normalised enrichment score” read 0.378.
Under “normalised enrichment score”, `PKPEKKLRFDIEG [L4E]` is recorded as 0.00719.
`PMPLKKLRFDIEG [K2M]`: “normalised enrichment score” 0.0444.
For `PPPLKKLRFDIEG [K2P]`, “normalised enrichment score” read 0.914.
`NKPLKKLRFDIEG [P1N]`: “normalised enrichment score” -0.589.
Under “normalised enrichment score”, `PKPLKKLRFDIES [G13S]` is recorded as -0.0364.
Under “normalised enrichment score”, `CKPLKKLRFDIEG [P1C]` is recorded as 0.742.
`PKPLFKLRFDIEG [K5F]`: “normalised enrichment score” 0.106.
Under “normalised enrichment score”, `PKPLKKLRFDIGG [E12G]` is recorded as 0.601.
`PKPLKKLRFLIEG [D10L]`: “normalised enrichment score” 0.164.
Under “normalised enrichment score”, `MKPLKKLRFDIEG [P1M]` is recorded as -0.299.
For `PKPAKKLRFDIEG [L4A]`, “normalised enrichment score” read 0.0754.
`PKPLKGLRFDIEG [K6G]` — result for “normalised enrichment score”: 0.0701.
`PKPLKKLRDDIEG [F9D]` — result for “normalised enrichment score”: 0.277.
`PKPLKKLRYDIEG [F9Y]` — result for “normalised enrichment score”: -0.485.
`PKPLKKLRFEIEG [D10E]` — result for “normalised enrichment score”: -1.09.
`PKPLLKLRFDIEG [K5L]` — result for “normalised enrichment score”: 0.239.
`PKPLKKLRFGIEG [D10G]` — result for “normalised enrichment score”: 1.36.
For `PYPLKKLRFDIEG [K2Y]`, “normalised enrichment score” read 0.994.
For `PKPLKFLRFDIEG [K6F]`, “normalised enrichment score” read 0.21.
`PKPLKKLRFDQEG [I11Q]`: “normalised enrichment score” -0.0943.
`PKPLKKLRFDIEE [G13E]` — result for “normalised enrichment score”: -0.0158.
For `PKPLKKLRFDICG [E12C]`, “normalised enrichment score” read 0.0332.
`PKPLKKLRFDIRG [E12R]` — result for “normalised enrichment score”: -0.292.

Block 2
Target: Histone acetyltransferase KAT6A, winged helix 2, GST fusion (KAT6A, Homo sapiens, UniProt Q92794, residues 85-181)
Method: protein binding microarray
Molecule type: double-stranded DNA, one strand shown
Matrix: in vitro
Concentration: not given
Notes: 8-mer, flanks averaged, mean of 2 arrays, mostly near background
Reference: not given
Reading: higher = stronger binding
Target sequence (chain): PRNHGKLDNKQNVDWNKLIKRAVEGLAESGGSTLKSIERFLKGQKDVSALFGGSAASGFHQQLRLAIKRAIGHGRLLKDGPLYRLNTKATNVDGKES
For `CCTGAAGC`, the E-score was -0.0166.
`CTTGGCGA` has an E-score of 0.0436.
`GAATGCGA` has an E-score of 0.102.
`ATGGCAAT` has an E-score of -0.0421.
`GTCTACAA` has an E-score of -0.146.
The E-score of `GCCAGCGC` is reported as 0.0463.
With `AGATCTTA` the E-score was -0.0481.
The E-score of `CACAGCAG` is reported as 0.167.
`CGGTATGA` gave an E-score of -0.0422.
`GATGGTCC` gave an E-score of -0.0806.
`AGCTTGGA` has an E-score of 0.019.
The E-score of `AGGGCAAT` is reported as 0.0153.
The E-score of `GCGGATAA` is reported as 0.146.
The E-score of `ATCTAGTC` is reported as -0.213.
`TGTCGTAA` has an E-score of -0.107.
`ACGATGGG` gave an E-score of -0.158.
`TGTACTAA` has an E-score of -0.0145.
The E-score of `CTGCAATC` is reported as -0.00261.
With `CAAGGAGA` the E-score was -0.162.
The E-score of `ACTGAACA` is reported as 0.0676.
`AGCGGAAG` has an E-score of 0.0827.
With `AGATCATA` the E-score was 0.107.
For `CAAGGCGG`, the E-score was 0.0394.
`CTAATGAC` has an E-score of -0.226.
For `GTCCCCAA`, the E-score was 0.07.

Block 3
Target: Prothrombin, mature alpha-thrombin (F2, Homo sapiens, UniProt P00734)
Method: aptamer microarray, sandwich
Molecule type: DNA with 2'F-ANA
Matrix: in vitro
Concentration: 200 nM
Notes: whole 15-mer aptamer, many near background
Together with: Cy3 exosite-II aptamer, 400 nM
Reading: higher = stronger binding
Oligonucleotide: GGTTGGTGTGGTTGG
For `2'F-ANA at 2 3 5 6 7 9 10 15`, “mean fluorescence intensity” read 113 a.u.
`2'F-ANA at 2 3 6 11 13 15` — result for “mean fluorescence intensity”: 545 a.u.
Under “mean fluorescence intensity”, `2'F-ANA at 2 3 4 5 6 8 10 14 15` is recorded as 76.4 a.u.
Under “mean fluorescence intensity”, `2'F-ANA at 1 2 3 6 8 9 11 14 15` is recorded as 73.3 a.u.
For `2'F-ANA at 1 2 4 5 6 7 8 11 12 15`, “mean fluorescence intensity” read 198 a.u.
For `2'F-ANA at 2 4 5 6 10 12 14`, “mean fluorescence intensity” read 45.5 a.u.
Under “mean fluorescence intensity”, `2'F-ANA at 1 5 6 11 12 13 15` is recorded as 68.6 a.u.
`2'F-ANA at 1 2 4 5 8 9 10`: “mean fluorescence intensity” 45.8 a.u.
`2'F-ANA at 2 3 4 5 7 8 10 11 12 13 14` — result for “mean fluorescence intensity”: 50.3 a.u.
Under “mean fluorescence intensity”, `2'F-ANA at 1 3 4 5 7 8 9 11 15` is recorded as 60.2 a.u.
`2'F-ANA at 1 2 4 6 7 11 12 13 14 15` — result for “mean fluorescence intensity”: 67.4 a.u.
`2'F-ANA at 3 4 5 6 10 11 13 14 15`: “mean fluorescence intensity” 58.6 a.u.
Under “mean fluorescence intensity”, `2'F-ANA at 2 5 6 10 13 15` is recorded as 46.6 a.u.
For `2'F-ANA at 3 5 7 8 9 10 14`, “mean fluorescence intensity” read 52.9 a.u.
Under “mean fluorescence intensity”, `2'F-ANA at 3 4 5 10 11 14` is recorded as 49.5 a.u.
`2'F-ANA at 1 4 5 8 9 12 13 14 15`: “mean fluorescence intensity” 45.5 a.u.
Under “mean fluorescence intensity”, `2'F-ANA at 6 7 9 10 15` is recorded as 221 a.u.
`2'F-ANA at 1 4 5 9 10 12 13 14` — result for “mean fluorescence intensity”: 50.8 a.u.
`2'F-ANA at 1 2 4 6 8 9`: “mean fluorescence intensity” 168 a.u.
`2'F-ANA at 2 5 7 12` — result for “mean fluorescence intensity”: 178 a.u.
`2'F-ANA at 3 4 6 8 9 10 11 14 15`: “mean fluorescence intensity” 158 a.u.
Under “mean fluorescence intensity”, `2'F-ANA at 1 3 9 15` is recorded as 325 a.u.
`2'F-ANA at 1 3 4 5 6 7 10 11 14 15` — result for “mean fluorescence intensity”: 51.9 a.u.
For `2'F-ANA at 3 7 8 11 13`, “mean fluorescence intensity” read 1100 a.u.
`2'F-ANA at 3 5 6 7 11 14 15`: “mean fluorescence intensity” 50 a.u.

Block 4
Target: RING finger protein unkempt homolog, zinc fingers 1-6, SBP tag (UNK, Homo sapiens, UniProt Q9C0B0, residues 30-357)
Chain of UniProt Q9C0B0 (30-357, looked up): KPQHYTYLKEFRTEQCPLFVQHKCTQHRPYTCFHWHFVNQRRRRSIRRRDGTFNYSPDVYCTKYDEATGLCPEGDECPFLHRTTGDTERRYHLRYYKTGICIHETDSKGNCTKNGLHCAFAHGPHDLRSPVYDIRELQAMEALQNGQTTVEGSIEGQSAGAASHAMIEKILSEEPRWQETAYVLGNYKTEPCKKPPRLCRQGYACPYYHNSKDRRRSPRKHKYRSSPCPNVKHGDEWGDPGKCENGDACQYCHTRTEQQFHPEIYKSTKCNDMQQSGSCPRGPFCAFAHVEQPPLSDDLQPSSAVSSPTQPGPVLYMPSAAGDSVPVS
Method: RNA Bind-n-Seq
Molecule type: RNA
Matrix: in vitro
Concentration: 100 nM
Notes: RNA with constant flanks, vertebrate orthologous sites, ends assumed
Reference: input RNA pool
Reading: higher = stronger binding
Shared flanks, not repeated: GGGAGUUCUACAGUCCGACGAUC … CAACAGAGGAUUGAGCAUCA
For `CUCUUUUCCAGGUUGGAUGUACUGGAAAAGUCAUAGGAAUUGAUCACAUUAAAGAGCUAGUGGAUGACUCAAUAAAUAAUGUCAGGAAGGACGAUCCAACACUUCUGUCUUCAGGGAGAG`, the bound/input enrichment was 0.645 ratio.
The bound/input enrichment of `UGAGGGAGAGAUUUCUGUGCUUUCUCAUAUUUAAUUUACUCUUUUUAAGAUAUUCCAACCUAGAGUUUUUGAUGGAACUGAUAUAUUGACAGUUCUCACCUAAGUCCUUUUAUAAAGAAU` is reported as 1.38 ratio.
`UUGGGGUGUACCUGUGGGUGCUGCUGGCCACGUAGCGUUGUUUGAUCUAGGACCUUGACAUAAUAGAUAGGCUUGUGGUUUUUUAAUUUAAAGAUAUUAAGACUUAAUUCACUAAAAUUU` gave a bound/input enrichment of 0.726 ratio.
`GUCAUCUGACUGGAUGAAGACUGUUCCUAGUUAUAACCAAACAAAUAGCUCCAUGGACUUUAGAAAUUAUGUGAUGAGAGAUGAAAAUUUGGAACCACUCCCCAAAAACUGGGAAAUGGC` gave a bound/input enrichment of 1.54 ratio.
For `CAUGCUUACGCUCUUCUAUGAGAGAGAUGAAUUGGGGAGAACUGUCUCUGUUUUAUAGAUUAAUUUCUUUCUAAAUUAUGACCAAAAAUAUUUUGCUAUUUCUUUCUUUGUAUAUGGACA`, the bound/input enrichment was 0.658 ratio.
With `GCAUGCACAUGCCACUGUCACCAAGAGCGAGCCACCACUUCUCAGAUUUCCGAGCUGUUGUAGUGUUCCCUGUUCCCUACCCUUCCCCCGACUGUGAGAGAUGAGCUGUCCUAAGUUGUU` the bound/input enrichment was 0.785 ratio.
The bound/input enrichment of `UGCAGGAAUGGCCCCCAUCCCACCUGUUUAUUCUGUAAACUACAGCCUGUAAAUAACAUUUAGCAUUCCUAUUGUAACAAAAUUAAUUUUUAUGAAAUAAAUUAUAUUUCCUAGUCUAAU` is reported as 1.19 ratio.
With `UGUGCUCAUAUAUAGCAGUUAGAGUGGGUUGCCCCUCUACUCCCAAGAAGAAAUCCCAGAUAGCUUCCUUUCAUGUCGGAUUAUACUGUUCUGAUUUUACUUUCUAUUAUUUUUACUUAU` the bound/input enrichment was 1.19 ratio.

For quick reference, copied from above (block 4):
With `GCAUGCACAUGCCACUGUCACCAAGAGCGAGCCACCACUUCUCAGAUUUCCGAGCUGUUGUAGUGUUCCCUGUUCCCUACCCUUCCCCCGACUGUGAGAGAUGAGCUGUCCUAAGUUGUU` the bound/input enrichment was 0.785 ratio.
`UUGGGGUGUACCUGUGGGUGCUGCUGGCCACGUAGCGUUGUUUGAUCUAGGACCUUGACAUAAUAGAUAGGCUUGUGGUUUUUUAAUUUAAAGAUAUUAAGACUUAAUUCACUAAAAUUU` gave a bound/input enrichment of 0.726 ratio.
The bound/input enrichment of `UGCAGGAAUGGCCCCCAUCCCACCUGUUUAUUCUGUAAACUACAGCCUGUAAAUAACAUUUAGCAUUCCUAUUGUAACAAAAUUAAUUUUUAUGAAAUAAAUUAUAUUUCCUAGUCUAAU` is reported as 1.19 ratio.
With `UGUGCUCAUAUAUAGCAGUUAGAGUGGGUUGCCCCUCUACUCCCAAGAAGAAAUCCCAGAUAGCUUCCUUUCAUGUCGGAUUAUACUGUUCUGAUUUUACUUUCUAUUAUUUUUACUUAU` the bound/input enrichment was 1.19 ratio.
For `CAUGCUUACGCUCUUCUAUGAGAGAGAUGAAUUGGGGAGAACUGUCUCUGUUUUAUAGAUUAAUUUCUUUCUAAAUUAUGACCAAAAAUAUUUUGCUAUUUCUUUCUUUGUAUAUGGACA`, the bound/input enrichment was 0.658 ratio.
For `CUCUUUUCCAGGUUGGAUGUACUGGAAAAGUCAUAGGAAUUGAUCACAUUAAAGAGCUAGUGGAUGACUCAAUAAAUAAUGUCAGGAAGGACGAUCCAACACUUCUGUCUUCAGGGAGAG`, the bound/input enrichment was 0.645 ratio.
The bound/input enrichment of `UGAGGGAGAGAUUUCUGUGCUUUCUCAUAUUUAAUUUACUCUUUUUAAGAUAUUCCAACCUAGAGUUUUUGAUGGAACUGAUAUAUUGACAGUUCUCACCUAAGUCCUUUUAUAAAGAAU` is reported as 1.38 ratio.
`GUCAUCUGACUGGAUGAAGACUGUUCCUAGUUAUAACCAAACAAAUAGCUCCAUGGACUUUAGAAAUUAUGUGAUGAGAGAUGAAAAUUUGGAACCACUCCCCAAAAACUGGGAAAUGGC` gave a bound/input enrichment of 1.54 ratio.
